Measured values of several laboratories.
Protocols differ between the studies behind these lines. ± gives the spread as reported.

The terminal half-life of CN[C@@H]1C[C@H]2O[C@@](C)([C@@H]1OC)n1c3ccccc3c3c4c(c5c6ccccc6n2c5c31)C(=O)N[C@@H]4O is reported as 15 days (human patients, plasma; intravenous infusion, 45 mg/m^2/day, 72 h infusion, median, cycle 1).
CCCCCCCCCC[N+](C)(C)Cc1ccccc1 gave a hepatic clearance of 2.31 mL/h/g liver (in vitro-in vivo extrapolation; human).
COc1ccc2c(c1)[nH]c1c(C)nccc12 has an LD50 of 329 to 606 mg/kg (Kunming mice, both sexes; oral, 14 days).
With CC[C@H](C)[C@H](NC(=O)[C@@H](N)CCCNC(=N)N)C(=O)N[C@H](C(=O)N1CCC[C@H]1C(=O)N[C@@H](C)C(N)=O)C(C)C the AUC(0-t) was 1470 ± 677 ng·h/mL (healthy volunteers, both sexes, plasma; intravenous infusion, 4.5 mg/kg daily, day 7, multiple ascending dose).
The Cmax of CNC(=O)c1ccc(-c2cnn3ccc(C(=O)N(C)c4ccc(Cl)c(C(=O)OC)c4)cc23)cc1 is reported as 5 nM (rat, Wistar or Sprague Dawley, male, plasma, jugular vein (systemic); oral, 100 mg/kg).
CSCC[C@@H]1NC(=O)[C@H](CC(=O)O)NC(=O)CNC(=O)[C@H](CCCNC(=N)N)NC(=O)[C@H](C)NC(=O)[C@H](CCC(=O)O)NC(=O)[C@H](CCCNC(=N)N)NC(=O)[C@@H]2CSSC[C@@H]3NC(=O)[C@H](CO)NC(=O)[C@H]([C@@H](C)O)NC(=O)[C@@H]4CCCN4C(=O)[C@H](C)NC(=O)[C@H](Cc4c[nH]c5ccccc45)NC(=O)[C@H](CC(=O)O)NC(=O)CNC(=O)[C@H](CCCNC(=N)N)NC(=O)CNC(=O)[C@H](CCC(N)=O)NC(=O)[C@@H]4CCCN4C(=O)[C@@H](NC(=O)CNC(=O)C(C)F)CSSC[C@H](NC(=O)CNC(=O)[C@H](C)NC(=O)[C@H](CC(C)C)NC(=O)[C@H](CSSC[C@@H](C(=O)NCC(N)=O)NC(=O)[C@H]([C@@H](C)O)NC(=O)[C@H](CCCNC(=N)N)NC(=O)[C@@H]4CCCN4C1=O)NC(=O)[C@H](CC(=O)O)NC(=O)[C@H](CO)NC(=O)[C@H](CC(=O)O)NC(=O)[C@H](CCC(N)=O)NC(=O)[C@H](CO)NC3=O)C(=O)N[C@@H](C(C)C)C(=O)N2 (stereo partly drawn) [fluorine-18 labelled] gave a tissue uptake of 0.64 ± 0.07 %ID/g (nude mice U-87 MG xenograft, blood; intravenous, 0.5 h).
CN[C@@](C)(C[18F])C(=O)O has a tissue uptake of 0.4 ± 0.1 %ID/g (SCID mouse A549 xenograft, brain; 30 min, post injection).
CC1N=C(c2ccccc2F)c2cc(Nc3ccc(C#N)cc3)ccc2NC1=O (stereo not drawn) has a solubility of 3.57 µM (shake flask; PBS; 24 h, pH 7.4).
O=C(NCCc1ccc(F)cc1F)c1cn(Cc2ccc(F)cc2)cc(O)c1=O has a solubility of 2.2 µM (PBS; 72 h, pH 7.2).
The kidney uptake of CC(=O)N[C@H](CCCCNC(=O)C(C)F)C(=O)N[C@@H](CS)C(=O)N[C@@H](CS)C(=O)N[C@@H](CCC(=O)O)C(=O)N[C@@H](Cc1c[nH]cn1)C(=O)N[C@H](Cc1ccccc1)C(=O)N[C@@H](CCCNC(=N)N)C(=O)N[C@@H](Cc1c[nH]c2ccccc12)C(=O)N[C@@H](CS)C(=O)N[C@@H](CCCNC(=N)N)C(=O)N1CCC[C@H]1C(=O)N[C@H](C(N)=O)C(C)C (stereo partly drawn) [fluorine-18 labelled] is reported as 6.59 ± 1.53 %ID/g (nude mice, A375M tumour, kidney; intravenous, 2 h).
With NC(=O)c1nc(F)c[nH]c1=O the solubility was 801 µg/mL (UV-Vis spectrophotometry; supercritical CO2; 120 min, 318 K, 21 MPa, 823.70 kg/m^3).
CS(=O)(=O)CCCn1c(Cn2c(=O)n(CC(F)(F)F)c3ccncc32)cc2cc(Cl)ccc21 — result for “patients with low MCH”: 8% (RSV-infected infants; concentration not given, mid dose cohorts).

Excerpt of the above:
CSCC[C@@H]1NC(=O)[C@H](CC(=O)O)NC(=O)CNC(=O)[C@H](CCCNC(=N)N)NC(=O)[C@H](C)NC(=O)[C@H](CCC(=O)O)NC(=O)[C@H](CCCNC(=N)N)NC(=O)[C@@H]2CSSC[C@@H]3NC(=O)[C@H](CO)NC(=O)[C@H]([C@@H](C)O)NC(=O)[C@@H]4CCCN4C(=O)[C@H](C)NC(=O)[C@H](Cc4c[nH]c5ccccc45)NC(=O)[C@H](CC(=O)O)NC(=O)CNC(=O)[C@H](CCCNC(=N)N)NC(=O)CNC(=O)[C@H](CCC(N)=O)NC(=O)[C@@H]4CCCN4C(=O)[C@@H](NC(=O)CNC(=O)C(C)F)CSSC[C@H](NC(=O)CNC(=O)[C@H](C)NC(=O)[C@H](CC(C)C)NC(=O)[C@H](CSSC[C@@H](C(=O)NCC(N)=O)NC(=O)[C@H]([C@@H](C)O)NC(=O)[C@H](CCCNC(=N)N)NC(=O)[C@@H]4CCCN4C1=O)NC(=O)[C@H](CC(=O)O)NC(=O)[C@H](CO)NC(=O)[C@H](CC(=O)O)NC(=O)[C@H](CCC(N)=O)NC(=O)[C@H](CO)NC3=O)C(=O)N[C@@H](C(C)C)C(=O)N2 (stereo partly drawn) [fluorine-18 labelled] gave a tissue uptake of 0.64 ± 0.07 %ID/g (nude mice U-87 MG xenograft, blood; intravenous, 0.5 h).
CN[C@@](C)(C[18F])C(=O)O has a tissue uptake of 0.4 ± 0.1 %ID/g (SCID mouse A549 xenograft, brain; 30 min, post injection).
